Results pooled from the literature.
Protocols differ between the studies behind these lines.
Organism: Human immunodeficiency virus 1

SMILES | test | system | conditions | IC50 [µM]
COc1ccc(-c2ccc3c(-c4ccc(F)cc4F)cn(C)c3n2)cc1 | cell growth or viability, MTT | TZM-bl | 48 h | 49.3
O=C(Nc1ccccc1CO)c1ccccc1Oc1ccc([N+](=O)[O-])cc1 | viral replication | MT4 | 7 days | 15.6
CN(C)CCCNc1cc2c(=O)n(CCCN(C)C)c(=O)c3c4[nH]c5ccccc5[nH]c4c4c(=O)n(CCCN(C)C)c(=O)c1c4c23 | viral replication | TZM-bl, NL43 | 48 h | 0.814
O=C(Nc1ccccc1CO)c1ccccc1Sc1ccc([N+](=O)[O-])cc1 | viral replication | MT4 | 7 days | 93
CNCC(NC(=O)c1ccc(-c2ccc3c(c2)OCO3)[nH]1)c1ncc(CO)s1 (stereo not shown) | viral replication, ELISA | MT2 |  | 7.5
COc1ccc(-c2ccc3c(-c4ccccc4)cn(C)c3n2)cc1 | cell growth or viability, MTT | TZM-bl | 48 h | 50.5
COc1ccccc1NC(=O)c1ccccc1OCc1cccc([N+](=O)[O-])c1 | viral replication | MT4 | 7 days | > 100
Cn1cc(-c2ccccc2)c2ccc(-c3cc(C(F)(F)F)cc(C(F)(F)F)c3)nc21 | cell growth or viability, MTT | TZM-bl | 48 h | > 200
COc1ccccc1NC(=O)c1ccccc1OCc1ccc([N+](=O)[O-])cc1 | viral replication | MT4 | 7 days | > 100
CC1=C(c2nc(-c3ccc(C#N)cc3)cs2)C(c2cc3ccccc3n2C)NC(=O)N1 (stereo not shown) | viral replication | MAGI-CCR5, NL43 |  | 0.52
Cn1cc(-c2ccc3c(c2)OCO3)c2ccc(-c3ccncc3)nc21 | cell growth or viability, MTT | TZM-bl | 48 h | > 200
CC(C)CN(C[C@@H](O)[C@H](Cc1ccccc1)NC(=O)O[C@H]1CCOC1)S(=O)(=O)c1ccc(N)cc1 | viral replication | MT2, IIIB | 5 days | 0.0503
C[N+](C)(C)CCCn1c(=O)c2ccc3c(=O)n(CCC[N+](C)(C)C)c(=O)c4c5[nH]c6ccccc6[nH]c5c(c1=O)c2c34 | viral replication | TZM-bl, NL43 | 48 h | > 5
COc1ccccc1C(=O)Nc1ccccc1Oc1ccc([N+](=O)[O-])cc1 | viral replication | MT4 | 7 days | 26.3
O=C(O)c1cc(O)c(O)c(O)c1 | viral replication | TZM-bl, BAL | 48 h | 6.08
CC1(C)Oc2ccc(-c3ccc(C(=O)NC(CN)c4ncc(CO)s4)[nH]3)cc2O1 (stereo not shown) | viral replication, ELISA | MT2 |  | 16.2
CC(C)(C)OC(=O)N1CCN(C(=O)c2ccccc2Sc2ccc([N+](=O)[O-])cc2)CC1 | viral replication | MT4 | 7 days | 3.7
CN(C)CCCn1c(=O)c2ccc3c(=O)n(CCCN(C)C)c(=O)c4c5[nH]c6cc(C(=O)O)ccc6[nH]c5c(c1=O)c2c34 | viral replication | TZM-bl, NL43 | 48 h | 0.975
Cn1cc(-c2cc(C(F)(F)F)cc(C(F)(F)F)c2)c2ccc(Cl)nc21 | cell growth or viability, MTT | TZM-bl | 48 h | 88.5
NCC(NC(=O)c1ccc(-c2ccc3nsnc3c2)[nH]1)c1ncc(CO)s1 (stereo not shown) | viral replication, ELISA | MT2 |  | 4
Cc1ccc(-c2ccc3c(-c4ccccc4)cn(C)c3n2)cc1 | cell growth or viability, MTT | TZM-bl | 48 h | > 200
Cc1nc(C(CN)NC(=O)C(=O)Nc2ccc3c(c2)OCO3)sc1CO (stereo not shown) | viral replication, ELISA | MT2 |  | > 79

Some of these lines once more:
SMILES | test | system | conditions | IC50 [µM]
CC(C)(C)OC(=O)N1CCN(C(=O)c2ccccc2Sc2ccc([N+](=O)[O-])cc2)CC1 | viral replication | MT4 | 7 days | 3.7
CN(C)CCCn1c(=O)c2ccc3c(=O)n(CCCN(C)C)c(=O)c4c5[nH]c6cc(C(=O)O)ccc6[nH]c5c(c1=O)c2c34 | viral replication | TZM-bl, NL43 | 48 h | 0.975
